# Published values from different studies.
# Numbered parts are unrelated; each lists some results of a single study. Substitutions count along the parent as printed.

# Series 1
# Target: Interferon regulatory factor 5, full length, phosphomimetic (IRF5, Homo sapiens, UniProt Q13568-2, residues 1-514, K96S/S451D/S453D/S456D/S462D)
# Method: protein-binding microarray
# Molecule type: double-stranded DNA, one strand shown
# Sample: in vitro
# Tested at: 250 nM
# Setting: 60-bp whole probe
# Added: salmon DNA 0.4 mg/ml
# Reference: random background probes
# Reading: higher = stronger binding
# Shared flanks, not repeated: GCCTAGCAC … GTCTTGATTCGCTTGACGCTGCTG
Sequence,log fluorescence [z-score]
AACTTTTTTTTTTCCCTGAAGTGCTAG,0.997
GAGGGTATCCTTATCCTGACGTGCTAG,-0.264
TACGATATCAGTTTCGAGACGTGCTAG,6.61
TTAGGTTCCGGTTTCGTTTAGTGCTAG,6.9
TCCTAATTCTCTTTTCACTTGTGCTAG,1.66
TCACTTCCCAATAATCTTACTGTGCTA,0.803
TCAGTTTTCGCTTTCTTACTGTGCTAG,5.56
TTAGGACTGGGGACTGGGTTCGTGCTA,-0.484
GACGGTCTCGGATTCGGGACGTGCTAG,-0.169
TTAGGTATCGGTTTCGCTTAGTGCTAG,10.1
GACGAACTGGGGAATGGAGACGTGCTA,-0.517
GACGATATCAGACTGAAGACGTGCTAG,0.37
GACGAACGGGGGTTTCGAGACGTGCTA,2.08
GACGCACTGCTTATCCTGACGTGCTAG,-0.232
TTAGGAGTGCTTCTCCTTTAGTGCTAG,-0.632

# Series 2
# Target: CCND3, cyclin fold, Cln2 fusion (human)
# Method: yeast growth competition, sequencing
# Sample: yeast
# Setting: weak parent motif
# Reference: not given
# Reading: higher = stronger binding
# Parent: SLBP docking peptide (human); ARYKRKLLINDFG; partner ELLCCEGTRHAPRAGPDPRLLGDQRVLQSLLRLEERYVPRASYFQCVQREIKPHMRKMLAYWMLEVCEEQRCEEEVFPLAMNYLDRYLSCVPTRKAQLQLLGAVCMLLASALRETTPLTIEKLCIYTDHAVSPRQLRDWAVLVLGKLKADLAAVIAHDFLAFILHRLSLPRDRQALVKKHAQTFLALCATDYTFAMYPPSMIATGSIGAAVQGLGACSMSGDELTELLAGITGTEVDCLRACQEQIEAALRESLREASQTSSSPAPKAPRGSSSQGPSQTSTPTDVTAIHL
Substitution,normalised enrichment score
ARYKRKLLINLFG [D11L],0.104
ARMKRKLLINDFG [Y3M],0.235
ARYKRKLLINDFM [G13M],0.229
ARYKRKLLIPDFG [N10P],0.172
ARYKRKLLIRDFG [N10R],0.091
ARYKRWLLINDFG [K6W],0.21
ARYKRKLLINDDG [F12D],0.18
ARYKRKLLINFFG [D11F],0.132
ALYKRKLLINDFG [R2L],0.153
ARYKRKLLINDQG [F12Q],0.0648
ARYKEKLLINDFG [R5E],0.137
ARYKRKLMINDFG [L8M],0.182
AQYKRKLLINDFG [R2Q],0.254
ARYKRTLLINDFG [K6T],0.165
ARYARKLLINDFG [K4A],0.112
ARYKRKLLINDGG [F12G],0.187

# Series 3
# Target: ABI1, truncated, D143A, DHFR fusion (Arabidopsis thaliana)
# Method: DHFR PCA, deep sequencing
# Sample: yeast
# Setting: methotrexate growth selection, single substitutions
# Added: (+)-ABA 0 µM
# Reference: wild-type fitted maximum
# Reading: higher = stronger binding
# Parent: PYL1, truncated, DHFR fusion (Arabidopsis thaliana); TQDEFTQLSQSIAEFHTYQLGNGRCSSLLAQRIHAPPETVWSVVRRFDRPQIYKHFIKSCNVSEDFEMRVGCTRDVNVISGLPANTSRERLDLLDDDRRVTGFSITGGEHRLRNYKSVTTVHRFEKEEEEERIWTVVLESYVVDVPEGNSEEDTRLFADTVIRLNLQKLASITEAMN; partner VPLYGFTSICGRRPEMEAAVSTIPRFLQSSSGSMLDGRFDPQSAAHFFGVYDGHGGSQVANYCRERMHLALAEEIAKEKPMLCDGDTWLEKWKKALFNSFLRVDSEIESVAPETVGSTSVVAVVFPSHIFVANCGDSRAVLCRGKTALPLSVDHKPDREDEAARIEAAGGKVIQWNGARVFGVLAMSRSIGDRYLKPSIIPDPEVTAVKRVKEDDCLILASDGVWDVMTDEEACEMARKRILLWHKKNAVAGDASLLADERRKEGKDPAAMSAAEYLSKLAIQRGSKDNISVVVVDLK
Substitution,relative binding score
I79D,2.48%
D97S,16.6%
T119E,-8.03%
Q51K,3.88%
L82D,10.4%
L169S,-2.88%
I172D,-17.4%
L138G,3.32%
Q51L,-1.41%

# Series 4
# Substance: PhoQ, residues 284 288 289 292 302 303 SLSLLA
# Method: Sort-seq
# Measured: YFP reporter
# Sample: E. coli
# Setting: PhoQ-PhoP variant library
# Added: 10 µM Mg2+
# Reference: high Mg2+ state
# Reading: higher = stronger signaling
target,fold induction
"PhoP, residues 12 14 15 18 19 HHYTI (Escherichia coli, UniProt P23836)",10.8
"PhoP, residues 12 14 15 18 19 SFCSL (Escherichia coli, UniProt P23836)",95.4
"PhoP, residues 12 14 15 18 19 AYFRS (Escherichia coli, UniProt P23836)",11.1

# Excerpt of the above (series 1):
Sequence,log fluorescence [z-score]
GACGAACGGGGGTTTCGAGACGTGCTA,2.08
GACGAACTGGGGAATGGAGACGTGCTA,-0.517
